Literature values, collected from citations in different studies.
Each line is one published result; not all experiments were run side by side. ± gives the spread as reported.
UniProt P08684, sequence (whole entry, looked up): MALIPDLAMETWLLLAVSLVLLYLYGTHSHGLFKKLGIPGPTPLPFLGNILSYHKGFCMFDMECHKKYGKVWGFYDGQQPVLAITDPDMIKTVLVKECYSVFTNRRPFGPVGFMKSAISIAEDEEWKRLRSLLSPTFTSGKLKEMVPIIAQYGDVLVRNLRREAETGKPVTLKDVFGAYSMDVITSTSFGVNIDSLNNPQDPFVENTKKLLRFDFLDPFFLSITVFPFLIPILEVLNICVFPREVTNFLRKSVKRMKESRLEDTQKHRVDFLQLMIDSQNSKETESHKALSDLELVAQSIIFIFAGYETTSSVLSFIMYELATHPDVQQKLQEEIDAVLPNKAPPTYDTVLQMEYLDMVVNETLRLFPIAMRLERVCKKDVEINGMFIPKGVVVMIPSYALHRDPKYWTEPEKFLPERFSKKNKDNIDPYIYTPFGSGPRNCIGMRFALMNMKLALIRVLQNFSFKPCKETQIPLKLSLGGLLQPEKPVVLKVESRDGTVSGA
UniProt Q9UNQ0, sequence (whole entry, looked up): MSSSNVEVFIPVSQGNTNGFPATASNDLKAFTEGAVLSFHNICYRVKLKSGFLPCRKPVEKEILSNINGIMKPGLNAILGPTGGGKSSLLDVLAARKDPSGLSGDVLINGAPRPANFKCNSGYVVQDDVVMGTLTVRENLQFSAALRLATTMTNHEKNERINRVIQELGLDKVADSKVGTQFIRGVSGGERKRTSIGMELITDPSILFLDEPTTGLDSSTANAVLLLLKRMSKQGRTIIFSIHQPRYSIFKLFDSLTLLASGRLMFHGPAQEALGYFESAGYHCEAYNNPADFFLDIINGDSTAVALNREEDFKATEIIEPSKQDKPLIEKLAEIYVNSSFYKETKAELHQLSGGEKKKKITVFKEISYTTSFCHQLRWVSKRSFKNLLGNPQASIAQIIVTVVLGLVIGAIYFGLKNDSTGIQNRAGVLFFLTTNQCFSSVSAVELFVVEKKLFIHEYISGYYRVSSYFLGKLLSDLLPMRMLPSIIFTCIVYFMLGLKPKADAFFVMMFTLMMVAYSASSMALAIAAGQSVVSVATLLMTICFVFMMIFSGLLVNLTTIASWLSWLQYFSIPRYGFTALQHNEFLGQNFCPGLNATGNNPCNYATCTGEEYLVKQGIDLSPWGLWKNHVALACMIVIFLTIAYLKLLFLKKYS
UniProt P05177, sequence (whole entry, looked up): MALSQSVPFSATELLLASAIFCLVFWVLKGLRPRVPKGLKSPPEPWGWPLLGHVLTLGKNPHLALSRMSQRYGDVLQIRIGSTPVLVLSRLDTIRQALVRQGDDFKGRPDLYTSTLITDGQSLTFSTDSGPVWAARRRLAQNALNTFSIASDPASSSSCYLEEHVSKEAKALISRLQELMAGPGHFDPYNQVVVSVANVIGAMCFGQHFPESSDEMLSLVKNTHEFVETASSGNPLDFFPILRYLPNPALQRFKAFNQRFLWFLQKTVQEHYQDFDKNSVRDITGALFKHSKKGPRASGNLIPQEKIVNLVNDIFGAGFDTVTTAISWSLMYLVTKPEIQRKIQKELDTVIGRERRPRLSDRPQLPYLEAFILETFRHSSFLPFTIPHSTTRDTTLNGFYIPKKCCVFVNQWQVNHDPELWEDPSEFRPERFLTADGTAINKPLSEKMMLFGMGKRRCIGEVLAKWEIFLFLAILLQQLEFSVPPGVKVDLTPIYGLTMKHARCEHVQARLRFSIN

| Compound | target or system | test | test system | conditions | scale | endpoint | value |
| --- | --- | --- | --- | --- | --- | --- | --- |
| C[C@@H](c1nc(-c2ccc(C#N)cc2)cs1)[C@](O)(Cn1cncn1)c1cc(F)ccc1F | CYP2C19 | enzyme activity, inhibitor | – | added: S-mephenytoin 4'-hydroxylation | – | IC50 | 5.4 µM |
| C[C@@H](O)CCCCn1c(=O)c2c(ncn2C)n(C)c1=O | low Km non-CYP enzyme | substrate, refers to: pentoxifylline formation | human liver microsomes | biphasic kinetics | – | Vmax | 0.003 nmol/min/mg |
| CC(O)c1cc(C(=O)N[C@@H](C)Cn2ccc(-c3ccc(C#N)c(Cl)c3)n2)[nH]n1 (some centres unmarked) | UGT enzymes | – | – | glucuronidation | – | fraction of clearance | ~30% |
| CO[C@H]1/C=C/O[C@@]2(C)Oc3c(C)c(O)c4c(O)c(c(/C=N/N5CCN(C)CC5)c(O)c4c3C2=O)NC(=O)/C(C)=C\C=C\[C@H](C)[C@H](O)[C@@H](C)[C@@H](O)[C@@H](C)[C@H](OC(C)=O)[C@@H]1C | OATP1B | – | – | in vivo, unbound fraction corrected | – | Ki | 3.29 µM |
| CO/N=C(\C(=O)N[C@@H]1C(=O)N2C(C(=O)O)=C(CSc3nc(C)c(CC(=O)O)s3)CS[C@H]12)c1csc(N)n1 | MRPs and organic anion transporters | – | rat | added: benzylpenicillin intravenous | decrease | brain ISF-to-plasma unbound ratio | ≤ 25 fold |
| CN(C/C=C/C#CC(C)(C)C)Cc1cccc2ccccc12 | CYP2C19 | substrate, refers to: dihydrodiol formation | – | – | – | Km | 110 ± 63 µM |
| O=C(Nc1ncnc2c1ncn2[C@@H]1O[C@@H]2COP(=O)(O)OC2C1O)c1ccccc1 (stereo in doubt) | PDE5 | cyclic nucleotide hydrolysis, substrate or inhibitor, isothermal titration calorimetry | – | – | – | Km or Ki | 68.9 µM |
| C=CCN1CC[C@]23c4c5ccc(O)c4O[C@H]2C(=O)CC[C@@]3(O)[C@H]1C5 | UGT2B7 (human) | glucuronidation, substrate | – | – | – | Km | 40 to 60 µM |
| CC(=O)C[C@@H](c1ccccc1)c1c(O)c2ccccc2oc1=O | CYP2C9 | substrate | healthy subjects, fed | oral, 10 mg, added: simeprevir 150 mg | reference: with over without simeprevir | Cmax ratio | 1 |
| Cn1c(=O)c2c(ncn2C)n(C)c1=O | Cytochrome P450 1A2 (CYP1A2, Homo sapiens, UniProt P05177) | demethylation to paraxanthine, substrate | – | – | – | fraction eliminated | 80 to 90% |
| Fc1ccc([C@@H]2CCNC[C@H]2COc2ccc3c(c2)OCO3)cc1 | CYP2D6 human | enzyme activity, inactivator | – | 20 to 30 mg once daily, steady-state blood concentrations | – | inhibition | 93% |
| Cc1ccccc1-c1cc(N2CCN(C)CC2)ncc1N(C)C(=O)C(C)(C)c1cc(C(F)(F)F)cc(C(F)(F)F)c1 | – | – | healthy volunteers | oral, 450 mg single dose, mean, added: palonosetron 0.75 mg | – | half-life | 88.1 h |
| O=C(O)C(Cl)Cl | glutathione S-transferase zeta | own metabolism to glyoxylate, inhibitor | – | concentration not given | – | inhibition | inhibited |
| C[C@@H](c1nc(-c2ccc(C#N)cc2)cs1)[C@](O)(Cn1cncn1)c1cc(F)ccc1F | OCT1 | substrate transport | – | added: [14C]tetraethylammonium | – | Ki | 1.74 µM |
| Nc1nc2c(nc(Sc3ccc(Cl)cc3)n2C2OC3COP(O)(=S)OC3C2O)c(=O)[nH]1 (centres unmarked) | PDE5 | cyclic nucleotide hydrolysis, substrate or inhibitor, isothermal titration calorimetry | – | – | – | Km or Ki | 49.7 µM |
| O=C1c2ccccc2-c2c1c1ccc([N+](=O)[O-])cc1c(=O)n2C[C@H](O)CO | melanoma UACC-62 | cell growth | – | – | – | GI50 | 0.098 µM |
| Nc1nc2cccc(-c3ccc(CN4CCS(=O)(=O)CC4)cc3)n2n1 | OATP1B1 | inhibitor | – | – | – | IC50 | 260 µM |
| C[C@@]12CC[C@H]3c4ccc(O)cc4CC[C@@H]3[C@H]1CC[C@H]2O (single isomer, unassigned) | HT-22 | cell protection | – | added: iodoacetic acid 20 µM | – | EC50 | 7.11 µM |
| O=C(O)CNC(=O)c1ccccc1[131I] | – | – | normal rat, urine | 60 min, added: co-injected 99mTc-1 | – | percent injected dose | 91.1 ± 3.7 %ID |
| CN(C)C(=O)CCSC(SCCC(=O)O)c1cccc(/C=C/c2ccc3ccc(Cl)cc3n2)c1 (centres unmarked) | MRP2 | CDF transport, inhibitor | Sf9 membrane vesicles | – | – | Ki | < 10 µM |
| CN(CC(=O)O)C(=O)CN | PepT1 | – | mouse, small intestine | dose not given | reference: PepT1 knockout over wild type | permeability reduction | 10 fold |
| CNC(=O)c1c(C)oc2cc(Oc3ncnc4cc(OC)c(OC)cc34)ccc12 | cytochrome P450 | – | – | – | – | CYP contribution to metabolism | ~30% |
| O=C1c2cccc3c2[C@H](CCC3)CN1[C@@H]1CN2CCC1CC2 | – | – | healthy volunteers, plasma | oral, dose not given, netupitant-palonosetron combination, added: oral contraceptives | – | half-life | 41.4 h |
| CNC(=O)c1cc(Oc2ccc(NC(=O)Nc3ccc(Cl)c(C(F)(F)F)c3)c(F)c2)ccn1 | hiPSC-derived cardiomyocytes | contractility | – | 72 h | – | lowest effective concentration | 3.7 µM |
| O=C1/C(=C/c2ccccc2)Oc2ccccc21 | Broad substrate specificity ATP-binding cassette transporter ABCG2 (ABCG2, Homo sapiens, UniProt Q9UNQ0) | pheophorbide A accumulation, inhibitor | MDA-MB-231/R | added: pheophorbide A | – | EC50 | > 30 µM |
| CC(=O)C(C)n1ncn(-c2ccc(N3CCN(c4ccc(OC[C@H]5CO[C@](Cn6cncn6)(c6ccc(Cl)cc6Cl)O5)cc4)CC3)cc2)c1=O (some centres unmarked) | Cytochrome P450 3A4 (CYP3A4, Homo sapiens, UniProt P08684) | competitive inhibitor | – | – | unbound | Ki | 0.014 µM |

Repeated from above:
| Compound | target or system | test | test system | conditions | scale | endpoint | value |
| --- | --- | --- | --- | --- | --- | --- | --- |
| CO[C@H]1/C=C/O[C@@]2(C)Oc3c(C)c(O)c4c(O)c(c(/C=N/N5CCN(C)CC5)c(O)c4c3C2=O)NC(=O)/C(C)=C\C=C\[C@H](C)[C@H](O)[C@@H](C)[C@@H](O)[C@@H](C)[C@H](OC(C)=O)[C@@H]1C | OATP1B | – | – | in vivo, unbound fraction corrected | – | Ki | 3.29 µM |
| C=CCN1CC[C@]23c4c5ccc(O)c4O[C@H]2C(=O)CC[C@@]3(O)[C@H]1C5 | UGT2B7 (human) | glucuronidation, substrate | – | – | – | Km | 40 to 60 µM |
| C[C@@H](O)CCCCn1c(=O)c2c(ncn2C)n(C)c1=O | low Km non-CYP enzyme | substrate, refers to: pentoxifylline formation | human liver microsomes | biphasic kinetics | – | Vmax | 0.003 nmol/min/mg |
| O=C(O)CNC(=O)c1ccccc1[131I] | – | – | normal rat, urine | 60 min, added: co-injected 99mTc-1 | – | percent injected dose | 91.1 ± 3.7 %ID |
